Experimental data of several laboratories.
Each numbered part is a random draw from the data of one study; scales do not carry over between parts.
Sequence of UniProt P07949 (whole entry, unmodified, looked up): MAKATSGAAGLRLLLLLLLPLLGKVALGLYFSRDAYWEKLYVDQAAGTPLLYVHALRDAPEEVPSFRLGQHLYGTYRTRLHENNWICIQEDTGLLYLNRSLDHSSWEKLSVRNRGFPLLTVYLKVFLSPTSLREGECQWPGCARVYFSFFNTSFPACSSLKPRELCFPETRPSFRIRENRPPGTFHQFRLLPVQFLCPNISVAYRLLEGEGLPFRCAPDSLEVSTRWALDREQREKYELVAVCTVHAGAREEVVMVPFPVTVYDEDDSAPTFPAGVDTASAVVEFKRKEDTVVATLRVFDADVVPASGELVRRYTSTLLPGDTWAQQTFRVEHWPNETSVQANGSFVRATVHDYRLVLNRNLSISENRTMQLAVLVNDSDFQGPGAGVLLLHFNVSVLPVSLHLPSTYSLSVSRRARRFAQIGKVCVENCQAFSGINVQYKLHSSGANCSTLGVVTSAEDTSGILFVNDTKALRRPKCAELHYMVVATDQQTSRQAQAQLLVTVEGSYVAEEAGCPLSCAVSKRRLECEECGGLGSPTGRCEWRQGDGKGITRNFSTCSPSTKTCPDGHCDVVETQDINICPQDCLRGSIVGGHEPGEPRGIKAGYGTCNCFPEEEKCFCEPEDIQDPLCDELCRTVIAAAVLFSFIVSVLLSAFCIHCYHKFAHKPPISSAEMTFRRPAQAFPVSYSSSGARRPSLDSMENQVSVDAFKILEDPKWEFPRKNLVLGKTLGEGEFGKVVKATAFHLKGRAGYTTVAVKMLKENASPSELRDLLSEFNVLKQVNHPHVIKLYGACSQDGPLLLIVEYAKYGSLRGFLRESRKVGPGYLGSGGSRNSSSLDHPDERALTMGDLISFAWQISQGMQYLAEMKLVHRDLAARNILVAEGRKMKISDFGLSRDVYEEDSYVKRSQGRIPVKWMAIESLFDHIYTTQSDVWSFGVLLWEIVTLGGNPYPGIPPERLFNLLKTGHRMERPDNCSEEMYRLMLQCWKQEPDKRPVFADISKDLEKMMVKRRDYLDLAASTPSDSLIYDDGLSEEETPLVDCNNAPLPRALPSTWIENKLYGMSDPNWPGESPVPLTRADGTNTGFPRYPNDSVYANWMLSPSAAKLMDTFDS
Sequence of UniProt Q8TDR2 (whole entry, looked up): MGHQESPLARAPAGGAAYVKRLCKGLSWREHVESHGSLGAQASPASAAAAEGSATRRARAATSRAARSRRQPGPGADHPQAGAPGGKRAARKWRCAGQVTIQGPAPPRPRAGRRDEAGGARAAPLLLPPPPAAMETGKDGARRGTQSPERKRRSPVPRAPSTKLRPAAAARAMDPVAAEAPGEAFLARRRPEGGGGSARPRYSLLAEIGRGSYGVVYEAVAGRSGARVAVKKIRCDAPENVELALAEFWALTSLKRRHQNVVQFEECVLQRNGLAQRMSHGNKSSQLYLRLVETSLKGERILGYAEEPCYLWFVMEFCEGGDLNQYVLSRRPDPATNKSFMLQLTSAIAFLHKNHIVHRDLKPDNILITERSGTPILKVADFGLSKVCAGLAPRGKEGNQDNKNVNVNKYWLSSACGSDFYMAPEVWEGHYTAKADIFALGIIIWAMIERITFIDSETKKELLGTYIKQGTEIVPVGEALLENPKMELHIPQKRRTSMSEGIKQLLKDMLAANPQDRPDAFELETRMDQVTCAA
Sequence of UniProt Q9UIK4 (whole entry, looked up): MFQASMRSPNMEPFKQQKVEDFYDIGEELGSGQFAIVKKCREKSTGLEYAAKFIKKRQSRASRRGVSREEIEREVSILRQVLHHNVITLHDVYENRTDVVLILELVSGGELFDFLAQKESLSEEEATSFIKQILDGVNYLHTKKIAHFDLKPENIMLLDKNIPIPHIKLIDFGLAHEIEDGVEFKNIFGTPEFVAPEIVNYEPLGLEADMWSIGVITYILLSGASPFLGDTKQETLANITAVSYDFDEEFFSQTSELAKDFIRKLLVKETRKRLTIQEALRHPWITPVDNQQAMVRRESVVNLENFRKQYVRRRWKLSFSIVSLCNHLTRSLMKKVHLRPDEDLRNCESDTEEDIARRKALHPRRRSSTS
Sequence of UniProt P49674 (whole entry, looked up): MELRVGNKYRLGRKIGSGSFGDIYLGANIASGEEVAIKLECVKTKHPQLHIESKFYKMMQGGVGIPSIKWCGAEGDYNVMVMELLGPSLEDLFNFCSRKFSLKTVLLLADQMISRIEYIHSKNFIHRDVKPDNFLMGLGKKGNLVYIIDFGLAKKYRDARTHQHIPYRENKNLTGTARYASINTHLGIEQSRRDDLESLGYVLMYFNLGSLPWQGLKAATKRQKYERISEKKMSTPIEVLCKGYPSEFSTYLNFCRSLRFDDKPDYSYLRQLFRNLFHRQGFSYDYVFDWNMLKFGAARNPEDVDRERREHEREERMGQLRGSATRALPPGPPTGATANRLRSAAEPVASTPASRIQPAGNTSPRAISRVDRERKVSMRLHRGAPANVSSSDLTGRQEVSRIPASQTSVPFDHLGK
Sequence of UniProt Q8WTQ7 (whole entry, looked up): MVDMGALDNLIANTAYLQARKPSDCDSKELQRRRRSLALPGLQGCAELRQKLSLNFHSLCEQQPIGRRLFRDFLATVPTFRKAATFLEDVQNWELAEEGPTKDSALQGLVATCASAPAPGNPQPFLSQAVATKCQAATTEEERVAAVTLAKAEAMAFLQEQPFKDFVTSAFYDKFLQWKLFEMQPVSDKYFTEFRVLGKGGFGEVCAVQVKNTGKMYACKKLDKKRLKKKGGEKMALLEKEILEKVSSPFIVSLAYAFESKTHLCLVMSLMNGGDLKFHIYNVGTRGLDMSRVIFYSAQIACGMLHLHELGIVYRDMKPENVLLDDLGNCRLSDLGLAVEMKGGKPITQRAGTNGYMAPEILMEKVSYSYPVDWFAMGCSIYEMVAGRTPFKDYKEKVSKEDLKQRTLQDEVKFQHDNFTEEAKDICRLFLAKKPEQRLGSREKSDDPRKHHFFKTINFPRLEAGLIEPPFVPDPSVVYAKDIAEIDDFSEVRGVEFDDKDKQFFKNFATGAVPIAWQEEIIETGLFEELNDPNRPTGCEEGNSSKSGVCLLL
Sequence of UniProt O75582 (whole entry, looked up): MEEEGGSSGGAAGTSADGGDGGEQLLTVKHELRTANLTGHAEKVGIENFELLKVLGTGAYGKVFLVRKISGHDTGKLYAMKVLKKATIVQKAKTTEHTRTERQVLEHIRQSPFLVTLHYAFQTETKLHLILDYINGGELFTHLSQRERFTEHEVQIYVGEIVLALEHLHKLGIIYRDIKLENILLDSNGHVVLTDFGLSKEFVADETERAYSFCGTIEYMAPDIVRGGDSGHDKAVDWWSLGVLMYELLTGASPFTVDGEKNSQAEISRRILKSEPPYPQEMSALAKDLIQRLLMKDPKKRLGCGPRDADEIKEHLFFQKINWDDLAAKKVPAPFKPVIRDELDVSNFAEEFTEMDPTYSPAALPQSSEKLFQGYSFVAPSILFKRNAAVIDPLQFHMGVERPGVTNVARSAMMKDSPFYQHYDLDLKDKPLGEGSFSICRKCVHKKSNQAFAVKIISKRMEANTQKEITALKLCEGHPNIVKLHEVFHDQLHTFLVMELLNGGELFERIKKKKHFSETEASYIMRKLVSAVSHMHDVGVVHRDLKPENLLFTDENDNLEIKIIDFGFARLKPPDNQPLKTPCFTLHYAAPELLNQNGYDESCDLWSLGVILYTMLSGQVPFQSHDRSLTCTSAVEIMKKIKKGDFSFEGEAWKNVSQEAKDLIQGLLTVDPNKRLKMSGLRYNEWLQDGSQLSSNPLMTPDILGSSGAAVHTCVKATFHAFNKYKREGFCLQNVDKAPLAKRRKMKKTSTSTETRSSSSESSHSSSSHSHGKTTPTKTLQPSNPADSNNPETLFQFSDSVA
Sequence of UniProt Q16584 (whole entry, looked up): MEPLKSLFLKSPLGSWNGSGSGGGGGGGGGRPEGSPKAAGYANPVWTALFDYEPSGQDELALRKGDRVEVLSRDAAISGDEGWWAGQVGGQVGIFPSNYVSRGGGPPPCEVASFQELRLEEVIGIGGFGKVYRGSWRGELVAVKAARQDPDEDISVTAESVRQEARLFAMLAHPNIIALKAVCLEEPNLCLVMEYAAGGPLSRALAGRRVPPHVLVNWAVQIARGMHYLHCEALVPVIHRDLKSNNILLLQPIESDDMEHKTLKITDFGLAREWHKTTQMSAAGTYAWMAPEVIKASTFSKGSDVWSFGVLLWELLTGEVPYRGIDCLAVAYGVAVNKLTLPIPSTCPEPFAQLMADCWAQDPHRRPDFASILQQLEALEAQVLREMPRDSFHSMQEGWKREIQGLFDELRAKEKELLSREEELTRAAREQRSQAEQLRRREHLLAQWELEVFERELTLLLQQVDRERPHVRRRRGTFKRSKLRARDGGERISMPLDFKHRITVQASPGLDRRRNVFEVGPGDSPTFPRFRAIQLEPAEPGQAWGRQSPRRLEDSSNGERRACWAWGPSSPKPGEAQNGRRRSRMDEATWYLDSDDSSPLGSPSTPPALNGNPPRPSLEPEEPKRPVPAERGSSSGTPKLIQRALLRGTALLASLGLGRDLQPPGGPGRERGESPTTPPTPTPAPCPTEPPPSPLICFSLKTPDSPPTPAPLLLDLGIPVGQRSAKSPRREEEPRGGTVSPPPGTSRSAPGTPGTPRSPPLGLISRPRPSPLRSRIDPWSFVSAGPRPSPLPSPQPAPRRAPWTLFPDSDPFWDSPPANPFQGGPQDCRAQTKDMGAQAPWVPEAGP

Sample 1 — technique: protein-binding microarray; form: hairpin DNA; matrix: in vitro; tested at: not given; reference: not given; direction: higher = stronger binding
Target: Homeobox protein Hox-B13, full length (HOXB13, Homo sapiens, UniProt Q92826, residues 1-284)
Sequence of UniProt Q92826 (whole entry, looked up): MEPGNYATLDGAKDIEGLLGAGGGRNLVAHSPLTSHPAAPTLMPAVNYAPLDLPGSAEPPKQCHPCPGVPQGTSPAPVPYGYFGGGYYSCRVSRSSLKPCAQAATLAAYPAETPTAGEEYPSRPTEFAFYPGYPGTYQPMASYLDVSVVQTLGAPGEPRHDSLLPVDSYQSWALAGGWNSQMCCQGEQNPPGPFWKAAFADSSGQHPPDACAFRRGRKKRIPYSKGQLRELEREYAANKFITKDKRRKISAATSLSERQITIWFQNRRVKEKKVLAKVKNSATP
Notes: whole hairpin DNA, median over replicate spots
With `GAGGCCCGTTTACGAGGGCCTCCTGGCCCTCGTAAACGGGCCTCACACTC` the median fluorescence was 5010 a.u.
`GAGGCCGTTGTACGAGGGCCTCCTGGCCCTCGTACAACGGCCTCACACTC` has a median fluorescence of 4100 a.u.
`GAGGCCGTTTTATTGCGGCCTCCTGGCCGCAATAAAACGGCCTCACACTC (5mC at 16 28)` gave a median fluorescence of 4800 a.u.
`GAGGCCGTTTTGTTGGGGCCTCCTGGCCCCAACAAAACGGCCTCACACTC (5mC at 33)` has a median fluorescence of 4210 a.u.
The median fluorescence of `GAGGCCGTTCGACGAGGGCCTCCTGGCCCTCGTCGAACGGCCTCACACTC (5mC at 10 34)` is reported as 4030 a.u.
For `GAGGCCGTTTTACGAGCGCCTCCTGGCGCTCGTAAAACGGCCTCACACTC (5mC at 17)`, the median fluorescence was 5780 a.u.
With `GAGGCCCTTTTACGAGGGCCTCCTGGCCCTCGTAAAAGGGCCTCACACTC (5mC at 7)` the median fluorescence was 4670 a.u.
For `GAGGCCGTTTTATTAGGGCCTCCTGGCCCTAATAAAACGGCCTCACACTC`, the median fluorescence was 4800 a.u.

Sample 2 — technique: aptamer microarray, sandwich; form: DNA with 2'F-ANA; matrix: in vitro; tested at: 200 nM; with: Cy3 exosite-II aptamer, 400 nM; direction: higher = stronger binding; sequence: GGTTGGTGTGGTTGG
Target: Prothrombin, mature alpha-thrombin (F2, Homo sapiens, UniProt P00734)
Notes: whole 15-mer aptamer, many near background
`2'F-ANA at 3 4 5 7 8 10 11 14` — result for “mean fluorescence intensity”: 48.2 a.u.
`2'F-ANA at 1 2 3 7 8 12 13 14`: “mean fluorescence intensity” 103 a.u.
`2'F-ANA at 3 4 5 6 10 11 12 13 14`: “mean fluorescence intensity” 47.4 a.u.
`2'F-ANA at 1 2 4 6 11 12` — result for “mean fluorescence intensity”: 218 a.u.
Under “mean fluorescence intensity”, `2'F-ANA at 1 3 6 7 9 10 12 13 14` is recorded as 64.6 a.u.
For `2'F-ANA at 2 5 6 7 10 12 14 15`, “mean fluorescence intensity” read 46.3 a.u.
`2'F-ANA at 1 2 6 8 12 13`: “mean fluorescence intensity” 318 a.u.
`2'F-ANA at 2 3 6 8 9 10 14`: “mean fluorescence intensity” 280 a.u.

Sample 3 — technique: competition with immobilised ligand; tested at: 1 µM
Structure (SMILES): Cc1nc(N2CC[C@@H](O)C2)ncc1-c1cc(C(F)(F)F)cc2[nH]ncc12
The remaining binding was 100% (MAP3K11 (Homo sapiens, UniProt Q16584); binding).
The remaining binding was 100% (STK35 (Homo sapiens, UniProt Q8TDR2); binding).
For PRKCH (Homo sapiens, UniProt P24723); cell-free assay: remaining binding read 94%.
The remaining binding was 91% (CDK17 (Homo sapiens, UniProt Q00537); binding).
It gave 90% for remaining binding (MAPK4 (Homo sapiens, UniProt P31152); binding).
For FGFR3 (Homo sapiens, UniProt P22607, G697C); cell-free assay: remaining binding read 90%.
The remaining binding was 79% (Tyrosine-protein kinase ABL1, phosphorylated (ABL1, Homo sapiens, UniProt P00519, Q252H); binding).
It gave 100% for remaining binding (TLK1 (Homo sapiens, UniProt Q9UKI8); cell-free assay).
The remaining binding was 76% (eIF-2-alpha kinase GCN2, C-terminal kinase domain (EIF2AK4, Homo sapiens, UniProt Q9P2K8, S808G); binding).
It gave 100% for remaining binding (DAPK2 (Homo sapiens, UniProt Q9UIK4); binding).
For TSSK3 (Homo sapiens, UniProt Q96PN8); binding: remaining binding read 100%.
For PLK3 (Homo sapiens, UniProt Q9H4B4); binding: remaining binding read 78%.
For RET (Homo sapiens, UniProt P07949, V804L); cell-free assay: remaining binding read 100%.
ITK (Homo sapiens, UniProt Q08881); cell-free assay — remaining binding: 64%.
The remaining binding was 80% (DMPK (Homo sapiens, UniProt Q09013); binding).
For Ribosomal protein S6 kinase alpha-5, N-terminal kinase domain (RPS6KA5, Homo sapiens, UniProt O75582); binding: remaining binding read 100%.
RET (Homo sapiens, UniProt P07949); cell-free assay — remaining binding: 84%.
For GRK7 (Homo sapiens, UniProt Q8WTQ7); binding: remaining binding read 70%.

Sample 4 — observed: enzyme activity; action: inhibitor; tested at: 0.5 µM; reference: control
Structure (SMILES): COc1ccc(S(=O)(=O)N(CCO)c2ccccc2CN(C)CC=Cc2ccc(Cl)cc2)cc1
For FLT1 (Homo sapiens, UniProt P17948): remaining activity read 94.7%.
It gave 97.4% for remaining activity (SIK2 (Homo sapiens, UniProt Q9H0K1)).
The remaining activity was 98% (RPS6KA3 (Homo sapiens, UniProt P51812)).
It gave 96.7% for remaining activity (CLK2 (Homo sapiens, UniProt P49760)).
The remaining activity was 105% (CSNK1E (Homo sapiens, UniProt P49674)).
The remaining activity was 94% (Cyclin-dependent kinase 2, with cyclin E (CDK2, Homo sapiens, UniProt P24941)).
The remaining activity was 103% (IGF1R (Homo sapiens, UniProt P08069)).
The remaining activity was 101% (PAK6 (Homo sapiens, UniProt Q9NQU5)).
TEC (Homo sapiens, UniProt P42680) — remaining activity: 101%.
EPHA6 (Homo sapiens, UniProt Q9UF33) — remaining activity: 95.3%.
For SGK2 (Homo sapiens, UniProt Q9HBY8): remaining activity read 99.8%.

Repeated from above (sample 3):
The remaining binding was 100% (STK35 (Homo sapiens, UniProt Q8TDR2); binding).
For Ribosomal protein S6 kinase alpha-5, N-terminal kinase domain (RPS6KA5, Homo sapiens, UniProt O75582); binding: remaining binding read 100%.
For TSSK3 (Homo sapiens, UniProt Q96PN8); binding: remaining binding read 100%.
For GRK7 (Homo sapiens, UniProt Q8WTQ7); binding: remaining binding read 70%.
It gave 100% for remaining binding (TLK1 (Homo sapiens, UniProt Q9UKI8); cell-free assay).
